Published values collected from several papers.
Lines come from different studies, so protocols differ. Values joined by “and” are separate records of one study, mostly repeats; a detail may differ. ± gives the spread as reported.
T1: BPTF PHD domain Y23M; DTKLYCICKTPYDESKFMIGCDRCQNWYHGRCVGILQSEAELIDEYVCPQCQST
B1: CFH domains 1108-1231 (Homo sapiens, UniProt P08603); sequence looked up; chain KCGPPPPIDNGDITSFPLSVYAPASSVEYQCQNLYQLEGNKRITCRNGQWSEPPKCLHPCVISREIMENYNIALRWRAKQKLYSRTGESVEFVCKRGYRLSSRSHTLRTTCWDGKLEYPTCAKR
B2: LILRB5 24-458 (Homo sapiens, UniProt O75023); sequence looked up; chain GTLPKPTLWAEPASVIARGKPVTLWCQGPLETEEYRLDKEGLPWARKRQNPLEPGAKAKFHIPSTVYDSAGRYRCYYETPAGWSEPSDPLELVATGFYAEPTLLALPSPVVASGGNVTLQCDTLDGLLTFVLVEEEQKLPRTLYSQKLPKGPSQALFPVGPVTPSCRWRFRCYYYYRKNPQVWSNPSDLLEILVPGVSRKPSLLIPQGSVVARGGSLTLQCRSDVGYDIFVLYKEGEHDLVQGSGQQPQAGLSQANFTLGPVSRSHGGQYRCYGAHNLSPRWSAPSDPLDILIAGLIPDIPALSVQPGPKVASGENVTLLCQSWHQIDTFFLTKEGAAHPPLCLKSKYQSYRHQAEFSMSPVTSAQGGTYRCYSAIRSYPYLLSSPSYPQELVVSGPSGDPSLSPTGSTPTPGPEDQPLTPTGLDPQSGLGRHLG
B3: FIBH residues 1259-1853 (Bombyx mori); N-terminal Alexa Fluor 488; chain GAGAGSGAGAGSGAGAGSGAGAGSGAGYGAGVGAGYGAGYGAGAGAGYGAGAGSGAGSGAGAGSGAGAGSGAGAGSGAGAGSGAGAGSGAGAGSGAGAGSGAGAGSGAGAGYGAGYGAGAGAGYGAGAGSGAGSGAGAGSGAGAGSGAGAGSGAGAGSGAGAGSGAGAGSGAGAGSGAGAGYGAGVGAGYGAGYGAGAGAGYGAGAGSGAGSGAGAGSGAGAGSGAGAGSGAGVGSGAGAGSGAGAGSGAGAGSGAGAGYGAGYGAGAGAGYGAGAGSGAGSGAGAGSGAGAGSGAGAGSGAGAGSGAGAGSGAGAGSGAGAGSGAGVGYGAGVGAGYGAGYGAGAGAGYGAGAGSGAAS
B4: KPNB1 33-211 (Homo sapiens, UniProt Q14974); sequence looked up; chain LPTFLVELSRVLANPGNSQVARVAAGLQIKNSLTSKDPDIKAQYQQRWLAIDANARREVKNYVLQTLGTETYRPSSASQCVAGIACAEIPVNQWPELIPQLVANVTNPNSTEHMKESTLEAIGYICQDIDPEQLQDKSNEILTAIIQGMRKEEPSNNVKLAATNALLNSLEFTKANFDK
B5: PUX5 (Arabidopsis thaliana, UniProt Q7Y175); chain MATETNENLINSFIEITSSSREEANFFLESHTWNLDAAVSTFLDNDAAAAAEPNPTGPPPPSSTIAGAQSPSQSHSPDYTPSETSPSPSRSRSASPSSRAAPYGLRSRGGAGENKETENPSGIRSSRSRQHAGNIRTFADLNRSPADGEGSDSDEANEYYTGGQKSGMMVQDPKKVKDVDELFDQARQSAVDRPVEPSRSASTSFTGAARLLSGEAVSSSPQQQQQEQPQRIMHTITFWLNGFTVNDGPLRGFSDPENAAFMNSISRSECPSELEPADKKIPVHVDLVRRGENFTEPPKPKNPFQGVGRTLGASGSGSSSAPQASSAPMNVAPAPSRGLVVDPAAPTTSIQLRLADGTRLVSRFNNHHTVRDVRGFIDASRPGGSKEYQLLTMGFPPKQLTELDQTIEQAGIANAVVIQKF
Sequence of UniProt P55072 (whole entry, looked up): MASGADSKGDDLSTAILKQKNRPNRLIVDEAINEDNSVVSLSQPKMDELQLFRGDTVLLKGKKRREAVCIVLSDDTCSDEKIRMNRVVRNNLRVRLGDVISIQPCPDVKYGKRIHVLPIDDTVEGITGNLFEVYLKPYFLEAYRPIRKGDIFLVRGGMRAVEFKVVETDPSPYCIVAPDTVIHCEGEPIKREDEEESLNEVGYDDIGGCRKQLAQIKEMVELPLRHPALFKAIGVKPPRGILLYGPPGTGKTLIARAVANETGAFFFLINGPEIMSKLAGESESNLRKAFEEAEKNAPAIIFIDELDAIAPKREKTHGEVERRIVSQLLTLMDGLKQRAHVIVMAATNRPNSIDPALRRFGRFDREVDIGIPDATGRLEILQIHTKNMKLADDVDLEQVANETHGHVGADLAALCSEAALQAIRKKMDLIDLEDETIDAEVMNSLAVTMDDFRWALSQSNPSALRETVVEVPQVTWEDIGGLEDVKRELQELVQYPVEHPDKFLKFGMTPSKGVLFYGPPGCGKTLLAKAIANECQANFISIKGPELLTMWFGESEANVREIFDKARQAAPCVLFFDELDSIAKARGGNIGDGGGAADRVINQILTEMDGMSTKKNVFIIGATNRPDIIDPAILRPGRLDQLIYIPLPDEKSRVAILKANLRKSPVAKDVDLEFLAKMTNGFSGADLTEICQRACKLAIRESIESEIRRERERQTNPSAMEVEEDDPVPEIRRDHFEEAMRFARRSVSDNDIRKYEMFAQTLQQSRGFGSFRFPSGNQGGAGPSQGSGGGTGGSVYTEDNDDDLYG
Sequence of UniProt P54762 (whole entry, looked up): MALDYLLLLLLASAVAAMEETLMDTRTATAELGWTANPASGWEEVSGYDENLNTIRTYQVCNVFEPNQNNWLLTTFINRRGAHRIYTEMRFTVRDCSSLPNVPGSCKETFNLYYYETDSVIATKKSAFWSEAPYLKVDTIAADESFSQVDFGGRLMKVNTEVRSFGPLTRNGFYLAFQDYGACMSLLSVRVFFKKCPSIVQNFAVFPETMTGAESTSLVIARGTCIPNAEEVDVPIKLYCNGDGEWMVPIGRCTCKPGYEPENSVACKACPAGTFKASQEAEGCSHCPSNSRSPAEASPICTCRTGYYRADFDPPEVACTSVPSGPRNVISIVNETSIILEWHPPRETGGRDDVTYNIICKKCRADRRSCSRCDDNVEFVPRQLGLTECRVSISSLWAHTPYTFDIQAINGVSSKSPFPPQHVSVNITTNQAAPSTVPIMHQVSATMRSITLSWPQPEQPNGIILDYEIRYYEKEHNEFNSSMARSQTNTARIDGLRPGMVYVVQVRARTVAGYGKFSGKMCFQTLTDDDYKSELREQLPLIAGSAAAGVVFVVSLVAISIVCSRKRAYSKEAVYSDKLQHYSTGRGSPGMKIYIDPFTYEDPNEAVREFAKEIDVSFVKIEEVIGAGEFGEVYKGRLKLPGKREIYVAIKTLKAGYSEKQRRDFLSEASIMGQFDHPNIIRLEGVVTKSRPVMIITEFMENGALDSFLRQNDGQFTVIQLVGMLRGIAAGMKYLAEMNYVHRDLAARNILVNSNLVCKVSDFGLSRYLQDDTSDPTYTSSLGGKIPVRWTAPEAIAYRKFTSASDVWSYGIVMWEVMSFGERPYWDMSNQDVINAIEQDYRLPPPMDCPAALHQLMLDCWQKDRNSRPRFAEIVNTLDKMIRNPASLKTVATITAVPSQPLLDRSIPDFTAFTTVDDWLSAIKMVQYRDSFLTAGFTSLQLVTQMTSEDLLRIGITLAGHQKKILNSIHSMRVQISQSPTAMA
Sequence of UniProt P01024 (whole entry, looked up): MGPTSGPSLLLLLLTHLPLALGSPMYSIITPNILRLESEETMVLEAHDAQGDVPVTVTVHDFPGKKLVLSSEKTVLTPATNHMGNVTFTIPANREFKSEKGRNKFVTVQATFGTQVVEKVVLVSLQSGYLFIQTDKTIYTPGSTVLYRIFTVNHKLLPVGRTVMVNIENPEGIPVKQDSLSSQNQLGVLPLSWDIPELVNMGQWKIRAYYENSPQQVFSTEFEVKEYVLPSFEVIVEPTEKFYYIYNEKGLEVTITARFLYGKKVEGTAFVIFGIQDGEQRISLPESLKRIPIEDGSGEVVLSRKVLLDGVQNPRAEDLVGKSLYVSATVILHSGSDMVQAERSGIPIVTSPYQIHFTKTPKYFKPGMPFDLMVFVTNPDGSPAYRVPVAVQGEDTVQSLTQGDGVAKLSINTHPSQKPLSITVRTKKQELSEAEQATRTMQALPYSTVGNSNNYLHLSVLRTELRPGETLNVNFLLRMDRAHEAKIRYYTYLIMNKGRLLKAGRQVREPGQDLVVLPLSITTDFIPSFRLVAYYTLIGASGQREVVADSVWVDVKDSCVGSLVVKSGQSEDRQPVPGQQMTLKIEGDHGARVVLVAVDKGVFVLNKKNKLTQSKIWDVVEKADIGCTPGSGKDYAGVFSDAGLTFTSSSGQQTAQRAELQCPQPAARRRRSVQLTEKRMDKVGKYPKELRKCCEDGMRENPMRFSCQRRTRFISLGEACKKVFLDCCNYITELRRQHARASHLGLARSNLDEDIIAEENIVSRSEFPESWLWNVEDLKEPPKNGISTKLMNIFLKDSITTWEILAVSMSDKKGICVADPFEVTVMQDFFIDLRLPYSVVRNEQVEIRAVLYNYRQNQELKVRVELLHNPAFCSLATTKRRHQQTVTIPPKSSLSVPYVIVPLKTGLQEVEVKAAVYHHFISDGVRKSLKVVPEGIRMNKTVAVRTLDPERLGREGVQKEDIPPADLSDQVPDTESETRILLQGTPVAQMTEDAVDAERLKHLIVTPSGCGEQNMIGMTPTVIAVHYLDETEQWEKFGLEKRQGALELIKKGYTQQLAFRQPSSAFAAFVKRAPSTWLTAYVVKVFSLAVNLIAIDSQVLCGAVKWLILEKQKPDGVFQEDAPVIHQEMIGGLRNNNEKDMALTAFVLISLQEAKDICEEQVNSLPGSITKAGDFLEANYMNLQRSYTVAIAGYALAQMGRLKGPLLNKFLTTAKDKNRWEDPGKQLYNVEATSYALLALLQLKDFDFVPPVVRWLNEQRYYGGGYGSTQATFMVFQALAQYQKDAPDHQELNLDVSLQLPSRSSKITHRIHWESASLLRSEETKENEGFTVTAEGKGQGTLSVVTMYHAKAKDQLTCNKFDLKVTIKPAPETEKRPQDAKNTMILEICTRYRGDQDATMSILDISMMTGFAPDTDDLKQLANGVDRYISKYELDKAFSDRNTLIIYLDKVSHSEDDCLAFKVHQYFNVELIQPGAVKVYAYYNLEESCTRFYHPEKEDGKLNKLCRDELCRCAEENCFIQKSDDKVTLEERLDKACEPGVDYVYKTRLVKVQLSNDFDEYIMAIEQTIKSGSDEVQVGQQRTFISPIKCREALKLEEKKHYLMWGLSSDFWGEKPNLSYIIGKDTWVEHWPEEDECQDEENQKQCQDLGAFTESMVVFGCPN
Sequence of UniProt Q09028 (whole entry, looked up): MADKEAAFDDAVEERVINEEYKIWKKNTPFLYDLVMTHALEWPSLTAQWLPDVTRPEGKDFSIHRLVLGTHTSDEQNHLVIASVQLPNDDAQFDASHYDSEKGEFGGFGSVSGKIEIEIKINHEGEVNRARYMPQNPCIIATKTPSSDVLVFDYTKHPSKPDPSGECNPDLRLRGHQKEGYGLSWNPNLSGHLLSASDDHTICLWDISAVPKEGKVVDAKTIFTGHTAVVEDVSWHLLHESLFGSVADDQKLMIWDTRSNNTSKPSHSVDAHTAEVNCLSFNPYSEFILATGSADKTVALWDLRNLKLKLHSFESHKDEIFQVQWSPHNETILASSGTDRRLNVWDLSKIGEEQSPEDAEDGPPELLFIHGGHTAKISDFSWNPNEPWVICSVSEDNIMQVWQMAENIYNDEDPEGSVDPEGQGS

For `FBLN4, N-glycans removed (Homo sapiens, UniProt O95967)`, the Kd was 0.0027 µM (ELN 27-724 (Homo sapiens, UniProt P15502-2); SPR).
For `MBL-A mature, hydroxylysine, hydroxyproline in collagen (Rattus norvegicus, UniProt P19999)`, the Kd was 0.112 µM (C1r/C1s CUB1-EGF-CUB2 (Homo sapiens); SPR; with: CaCl2 140 mM).
For `KLLITIHDRKEAAKAEEERARAKWDTANNPLYKEATSTFTNITYRGT (ITGB3 cytoplasmic tail 742-788 FF/AA (UniProt P05106); sequence looked up)`, the Kd was 2030 µM (Tln1 309-405 (Mus musculus, UniProt P26039); NMR titration).
The Kd of `B1 (CFH domains 1108-1231)` is reported as 6.8 ± 0.2 µM (C3 996-1303 (Homo sapiens, UniProt P01024); SPR).
With `ARTKQTARKSTGGKAPRKQ (H3C1 residues 1-19)` the Kd was 2 µM (RBBP4 (Homo sapiens, UniProt Q09028); ITC; peptide).
The Kd of `B2 (LILRB5 24-458)` is reported as 0.061 µM (EPHB1 18-540 (Homo sapiens, UniProt P54762); BLI; Fc fusion).
For `B3 (FIBH residues 1259-1853)`, the Kd was 1.12 ± 0.0162 µM (ELN (Homo sapiens, UniProt P15502); FCS).
The reporter activation of `WLGQWIARL` is reported as 0.18% (Jurkat T cells expressing 1G4 TCR; NFAT-eGFP reporter, flow cytometry; peptide; concentration not given, HLA-A*02:01 NY-ESO system).
`AAAGAAAGAAAG (dsDNA)` gave a Kd of 6.1 ± 0.518 µM (Fibroin-modulator-binding protein-1 99-193 (Bombyx mori, UniProt Q5FBS0); ITC; double-stranded DNA, one strand shown).
For `GLLQWITQV`, the reporter activation was 82.6% (Jurkat T cells expressing 1G4 TCR; NFAT-eGFP reporter, flow cytometry; peptide; concentration not given, HLA-A*02:01 NY-ESO system).
`CTNNA1 (Homo sapiens, UniProt P35221)` has a Kd of 0.0118 ± 0.0028 µM (CDH1/CTNNB1 ECT-bound 731-882 (Homo sapiens); BLI).
With `B4 (KPNB1 33-211)` the Kd was 0.00643 µM (VCP (Homo sapiens, UniProt P55072); BLI).
The AUC0−∞ of `insulin degludec` is reported as 630 ± 79 ng·h/mL (human; subcutaneous, 0.4 IU/kg, 3 FC level, single dose, reference formulation).
`B5 (PUX5)` gave a Kd of 3.6 ± 0.3 µM (CDC48A 1-463 (Arabidopsis thaliana, UniProt P54609); ITC; 25 °C).
`ARTKQTARKSTGGY (H3 1-13; K4me3)` has a Kd of 7.97 µM and 6.91 µM and 7.66 µM (T1, BPTF PHD domain Y23M; ITC; peptide).
